{"data": "Assay results gathered from unrelated publications", "note": "Every numbered part comes from another study and shows a few of its results, in no order. Substitutions count along the parent as printed."}
{"data": "Study 1", "target": "HLA class I histocompatibility antigen, A alpha chain, allele A*26:03 (Homo sapiens, UniProt P04439)", "read-out": "peptide-MHC binding", "form": "peptide", "tested at": "concentration not given"}
{"Molecule": "ALFDRPAFK", "binding": "inactive"}
{"Molecule": "RVYNNTARY", "binding": "inactive"}
{"Molecule": "RQMKSGGRF", "binding": "inactive"}
{"Molecule": "MGKTITDVK", "binding": "inactive"}
{"Molecule": "EIYRTLYGL", "binding": "inactive"}
{"Molecule": "GLAEKPNDY", "binding": "inactive"}
{"Molecule": "RIGGVLIFR", "binding": "inactive"}
{"Molecule": "RSLFNTIATLY", "binding": "inactive"}
{"Molecule": "KVQEWYLSY", "binding": "inactive"}
{"data": "Study 2", "target": "CCNA1, cyclin fold, Cln2 fusion (human)", "method": "yeast growth competition, sequencing", "sample": "yeast", "notes": "strong parent motif", "baseline": "not given", "direction": "higher = stronger binding", "parent": "viral docking peptide; TSVRRALFTGGSD"}
{"Variant": "G11K", "normalised enrichment score": 1.09}
{"Variant": "G10K", "normalised enrichment score": 0.473}
{"Variant": "V3N", "normalised enrichment score": -0.338}
{"Variant": "T9Q", "normalised enrichment score": 0.628}
{"Variant": "F8G", "normalised enrichment score": -0.0248}
{"Variant": "R4A", "normalised enrichment score": 0.359}
{"Variant": "S12R", "normalised enrichment score": 0.823}
{"Variant": "R5F", "normalised enrichment score": -0.206}
{"Variant": "G10W", "normalised enrichment score": 0.287}
{"Variant": "A6G", "normalised enrichment score": 0.6}
{"Variant": "A6R", "normalised enrichment score": 1.11}
{"Variant": "S2K", "normalised enrichment score": 1.47}
{"Variant": "T9P", "normalised enrichment score": 0.862}
{"Variant": "S2T", "normalised enrichment score": 1.65}
{"Variant": "T9V", "normalised enrichment score": 1.33}
{"Variant": "R4L", "normalised enrichment score": -0.317}
{"Variant": "A6Q", "normalised enrichment score": 1.25}
{"Variant": "G11L", "normalised enrichment score": 0.795}
{"Variant": "F8A", "normalised enrichment score": 0.268}
{"Variant": "R4F", "normalised enrichment score": -0.231}
{"Variant": "L7P", "normalised enrichment score": -0.0815}
{"Variant": "F8P", "normalised enrichment score": 0.199}
{"Variant": "L7H", "normalised enrichment score": -0.145}
{"Variant": "A6D", "normalised enrichment score": 0.498}
{"Variant": "F8D", "normalised enrichment score": -0.115}
{"data": "Study 3", "target": "UBE2D4 UBC core domain (UniProt Q9Y2X8)", "method": "yeast two-hybrid", "sample": "yeast", "notes": "mostly zero background", "baseline": "not given", "direction": "higher = stronger interaction", "B1": "CBLL1 RING domain (UniProt Q75N03); chain GEKDDTPVHFCDKCGLPIKIYGRMIPCKHVFCYDCAILHEKKGDKMCPGCSDPVQRIEQCT", "B2": "TRIM68 RING domain (UniProt Q6AZZ1); chain LVEAIVEEVACPICMTFLREPMSIDCGHSFCHSCLSGLWEIPGESQNWGYTCPLCRAPVQPRNLRP", "B3": "RMND5B RING domain (UniProt Q96G75); chain MKCWYHSVFACPILRQQTSDSNPPIKLICGHVISRDALNKLINGGKLKCPYCPMEQNPADGK", "B4": "RNF32 RING domain (UniProt Q9H0A6); chain VQALRRETHECSICLAPLSAAGGQRVGAGRRSREMALLSCSHVFHHACLLALEEFSVGDRPPFHACPLCRSCYQKKILEC", "sequence of UniProt Q9Y2X8 (whole entry, looked up)": "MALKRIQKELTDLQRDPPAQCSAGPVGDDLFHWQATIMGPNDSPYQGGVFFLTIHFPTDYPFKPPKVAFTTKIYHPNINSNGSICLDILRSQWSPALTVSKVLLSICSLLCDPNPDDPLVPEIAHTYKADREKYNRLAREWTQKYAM"}
{"Molecule": "EDVLSKDAGECAICLEELQQGDTIARLPCLCIYHKGCIDEWFEVNRSCPEHPSD (ZNRF2 RING domain (UniProt Q8NHG8))", "lacZ reporter activity": 14800}
{"Molecule": "B1 (CBLL1 RING domain)", "lacZ reporter activity": 0}
{"Molecule": "B2 (TRIM68 RING domain)", "lacZ reporter activity": 0}
{"Molecule": "GSEEEEIPFRCFICRQAFQNPVVTKCRHYFCESCALEHFRATPRCYICDQPTGGIFNPA (RNF113B RING domain (UniProt Q8IZP6))", "lacZ reporter activity": 0}
{"Molecule": "B3 (RMND5B RING domain)", "lacZ reporter activity": 11100}
{"Molecule": "B4 (RNF32 RING domain)", "lacZ reporter activity": 0}
{"data": "Study 4", "target": "Sal-like protein 4, full length isoform A (SALL4, Homo sapiens, UniProt Q9UJQ4, residues 1-1053)", "method": "universal PBM", "form": "double-stranded DNA, one strand shown", "sample": "in vitro", "tested at": "600 nM", "notes": "8-mer, flanks averaged, mean of replicates", "direction": "higher = stronger binding", "sequence of UniProt Q9UJQ4 (whole entry, looked up)": "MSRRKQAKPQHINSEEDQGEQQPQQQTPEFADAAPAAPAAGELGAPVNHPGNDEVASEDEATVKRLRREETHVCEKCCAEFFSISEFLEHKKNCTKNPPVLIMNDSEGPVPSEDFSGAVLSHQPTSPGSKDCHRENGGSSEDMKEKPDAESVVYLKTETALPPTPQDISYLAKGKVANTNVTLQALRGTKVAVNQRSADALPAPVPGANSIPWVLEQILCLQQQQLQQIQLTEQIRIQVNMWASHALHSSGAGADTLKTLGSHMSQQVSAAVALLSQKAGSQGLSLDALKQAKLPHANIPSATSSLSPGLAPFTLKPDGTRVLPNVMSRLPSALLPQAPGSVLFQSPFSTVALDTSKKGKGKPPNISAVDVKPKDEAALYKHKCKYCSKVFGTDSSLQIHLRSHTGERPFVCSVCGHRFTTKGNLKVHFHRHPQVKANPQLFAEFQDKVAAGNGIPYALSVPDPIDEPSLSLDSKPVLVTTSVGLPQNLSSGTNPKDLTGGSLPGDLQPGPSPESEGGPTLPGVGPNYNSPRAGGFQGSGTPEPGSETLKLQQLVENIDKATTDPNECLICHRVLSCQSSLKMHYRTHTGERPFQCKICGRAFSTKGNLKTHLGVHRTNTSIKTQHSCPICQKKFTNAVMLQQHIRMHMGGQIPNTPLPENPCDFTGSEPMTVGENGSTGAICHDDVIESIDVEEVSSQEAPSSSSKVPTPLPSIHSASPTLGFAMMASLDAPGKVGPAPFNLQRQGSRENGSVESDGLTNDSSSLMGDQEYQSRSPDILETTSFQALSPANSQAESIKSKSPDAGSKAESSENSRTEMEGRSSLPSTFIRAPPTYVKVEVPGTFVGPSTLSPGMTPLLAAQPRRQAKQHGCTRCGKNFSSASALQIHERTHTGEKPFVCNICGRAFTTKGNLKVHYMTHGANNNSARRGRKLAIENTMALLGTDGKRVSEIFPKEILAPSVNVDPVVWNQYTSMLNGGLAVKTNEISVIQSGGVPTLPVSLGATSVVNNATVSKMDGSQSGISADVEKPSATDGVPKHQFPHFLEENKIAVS"}
{"Sequence": "CACATGAG", "E-score": -0.0546}
{"Sequence": "ATAGGATC", "E-score": 0.152}
{"Sequence": "CCGGCTTA", "E-score": -0.219}
{"Sequence": "CTCATACC", "E-score": 0.133}
{"Sequence": "CTCACCAA", "E-score": 0.152}
{"Sequence": "CAGTTTGG", "E-score": -0.153}
{"Sequence": "CTAACGCA", "E-score": 0.079}
{"Sequence": "CTCACACC", "E-score": -0.221}
{"data": "Further values, each from its own experiment", "method": "cross-linking MS"}
{"Molecule": "DEK (Homo sapiens, UniProt P35659)", "partner": "CCDC112 (Homo sapiens, UniProt Q8NEF3)", "sample": "cell fractions", "together with": "DSSO", "endpoint": "cross-linked residues", "value": "K57 to K393"}
{"Molecule": "IMMT (Homo sapiens, UniProt Q16891)", "partner": "APOO (Homo sapiens, UniProt Q9BUR5)", "notes": "hits only", "endpoint": "interaction screen", "value": "cross-linked"}
{"Molecule": "UFL1 (Homo sapiens, UniProt O94874)", "partner": "CDK5RAP3 (Homo sapiens, UniProt Q96JB5)", "sample": "cell fractions", "together with": "DHSO", "endpoint": "cross-linked residues", "value": "E126 to E435"}
{"Molecule": "ANK3 (Homo sapiens, UniProt Q12955)", "partner": "CCDC71 (Homo sapiens, UniProt Q8IV32)", "sample": "cell fractions", "together with": "DMTMM", "endpoint": "cross-linked residues", "value": "D2575 to K24"}
{"note": "A few entries again (study 2):"}
{"Variant": "F8A", "normalised enrichment score": 0.268}
{"Variant": "R4F", "normalised enrichment score": -0.231}
{"Variant": "L7P", "normalised enrichment score": -0.0815}
{"Variant": "F8P", "normalised enrichment score": 0.199}
{"Variant": "L7H", "normalised enrichment score": -0.145}
{"Variant": "A6D", "normalised enrichment score": 0.498}
